# Published values pooled from the literature.
# Protocols differ between the studies behind these lines. “And” joins repeats or separate records; there may be more than shown. ± gives the spread as reported.
SMILES,test,test system,setting,scale,endpoint,result
NC[C@@H](C(=O)Nc1ccc(-c2cn[nH]c2)cc1)c1ccccc1,OECD 405 eye irritation,"New Zealand White rabbit, eye","topical, 0.1%, 56 h (day 3), scale 0 to 4",direction not given,chemosis score,0
O=C1/C(=C/c2ccc(B(O)O)cc2)CC/C1=C\c1ccc(B(O)O)cc1,,water,,,electrophoretic mobility,-0.000118 cm2/(V·s)
CC(C)(O)c1ncc([S@](N)(=O)=NC(=O)Nc2c3c(cc4c2CCC4)CCC3)s1,,healthy human,"oral, 10 mg once daily, day 1, capsule formulation, geometric mean",,Cmax,992 ng/mL
COc1cc(C(=O)COC(=O)CCCN)ccc1O,LC-MS/MS,1-pentanol,concentration not given,,photolysis quantum yield,0.042
Cc1cc2c(cc1C1(c3ncc(C(=O)O)cn3)CC1)C(C)(C)CCC2(C)C,,"Sprague-Dawley rat, male","oral, 100 mg/kg, 6 h, sesame oil vehicle",,blood cholesterol,75 ± 4.7 mg/dL
O=c1c2cc(-c3ccc(Cl)cc3)nc(-c3cccnc3)c2ncn1C1CCC(OP(=O)(O)O)CC1 (stereo not drawn),,"ICR mice, male, plasma","oral, 300 mg/kg daily, day 1",,AUC(0-last),386 µg·h/mL
Oc1cc(C(F)(F)F)ccc1-c1nc2c(C(F)(F)F)cc(C(F)(F)F)cc2[nH]1,hemolysis,defibrinated sheep blood,,,HC50,252 µM
CN(CCCN=Cc1ccccc1[O-])CCN(C)CCCN=Cc1ccccc1[O-].[67Ga+3],,rat,"intravenous, 2 h",reference: heart over lung,tissue uptake ratio,2.8 ± 0.4
CC(C)C[C@@H](NC(=O)[C@H](NC(=O)[C@H]1CCCN1)[C@H](C)O)C(=O)N[C@H](Cc1c[nH]cn1)C(=O)N[C@@H](C(=O)N[C@H](Cc1c[nH]cn1)C(=O)N[C@H](CC(N)=O)C(=O)N[C@H](CCCNC(=N)N)C(=O)N[C@H](CCCNC(=N)N)C(=O)N[C@H](CCCNC(=N)N)C(=O)N[C@H](CCCNC(=N)N)C(=O)N[C@H](CCCNC(=N)N)C(N)=O)[C@H](C)O,,"Beagle dog, plasma","intravenous, 3 mg/kg, single dose",,AUC fraction of beta phase,93%
COc1cc(NC(C)=O)c2c(c1O)-c1c(OC)c(OC)cc3c1C(C2)N(C)CC3 (stereo not drawn),,rat liver homogenate,"100 µg/mL, 4 h, room temperature, short-term storage",,remaining compound,93.7 ± 1.9%
O=C(O)/C=C/c1cccc(S(=O)(=O)Nc2ccccc2)c1,,"human, mild liver dysfunction, plasma","intravenous, 400 mg/m^2 belinostat, cycle 1 day -7, geometric mean",reference: metabolite over belinostat,AUC(0-inf) metabolic ratio,0.423
NC(=O)[C@H](Cc1ccccc1)N[11C](=O)OCc1ccccc1,,"male Wistar rats, plasma","intravenous, 45 min",,intact tracer,10.9% and 11%
CNc1cc(OC)c(Nc2nccc(-c3cn(C4CC4)c4ccccc34)n2)cc1NC(=O)CCSCC(NC(C)=O)C(=O)O (stereo not drawn),"radio-HPLC, co-eluting peaks pooled","human, urine","0 to 96 h, sample holds 4.16% dose",reference: dose,excreted amount,0.07%
COc1ccnc(C[S+]([O-])c2nc3cc(-n4cccc4)ccc3[nH]2)c1C (stereo not drawn),,"male Sprague Dawley rats, plasma","oral, 10 mg/kg of ilaprazole racemate",,Vz/F,16.6 ± 13.7 L/kg
CN(C)C(=O)c1ccnc(N2Cc3cn(Cc4ccc(F)cc4F)nc3C2)n1,,"Sprague-Dawley rat, brain",dose not given,,brain half-life,> 150 min
Cc1nc(C)c(C=[N+]([O-])C(C)(C)C)nc1C,,"Sprague-Dawley rat both sexes, brain","oral, 45 mg/kg, 30 min",,brain concentration,~100 µM
COc1cc(N(C)CCN(C)C)c(NC(=O)CCSCC(N)C(=O)O)cc1Nc1nccc(-c2cn(C3CC3)c3ccccc23)n1 (stereo not drawn),radio-HPLC,"human, feces","96 to 240 h, sample holds 16.61% dose",reference: dose,excreted amount,0.74%
Cc1ccc(-c2ccc(-c3cc4sccc4o3)cn2)nc1,TCSPC,"water, HEPES 100 mM","pH 7.4, zinc complex",,radiative decay rate constant,0.13 ns⁻¹
CC[C@@H](C)[C@H]1NC(=O)[C@@H]([C@H](C)O)NC(=O)[C@@H](Cc2c[nH]cn2)NC(=O)CNC(=O)[C@@H](CCCNC(=N)N)NC(=O)CNC(=O)[C@@H](Cc2ccccc2)NC1=O,,New Zealand rabbit,"eye drop, single dose",reference: retina over vitreous,retina to vitreous ratio,~30 fold
C[Si](C)(C)C[C@H](CN)CC(=O)O,,"male Sprague-Dawley rat, plasma","oral, 30 mg/kg, single dose",,Tmax,49.8 min
COC(=O)C(c1ccccc1Cl)N1CCC(SCC(=O)c2cccc(OC)c2)C(=CC(=O)O)C1 (mixture of isomers),HPLC-MS/MS,feline citrate plasma,"100 ng/mL, 72 h, -80 °C, storage stability",,deviation from nominal,-8%
C#CCN(CCCNC(=O)CCCCC[N+]1=C(/C=C/C2=C(Cl)C(=C/C=C3\N(CCCCCC(=O)[O-])c4ccccc4C3(C)C)/CCC2)C(C)(C)c2ccccc21)CCCOc1ccc(Cl)cc1Cl,,mouse plasma,"0.01 µg/mL nominal, 4 h, on ice",,concentration,9.9 ± 0.5 ng/mL
CN[C@@H](CCOc1cccc2ccccc12)c1ccccc1,,"healthy male human, plasma","oral, with: dapoxetine with udenafil",reference: combination over dapoxetine alone,t1/2β geometric mean ratio,0.992
Oc1cc(F)ccc1Oc1ccccc1,,"CD-1 mice, plasma","subcutaneous, 100 mg/kg",,absorption rate constant,3.5 ± 2.5 h⁻¹
CC12CC(c3ccc(S(C)(=O)=O)cc3)C3=C4CCC(=O)C=C4CCC3C1CCC2(O)C(F)(F)C(F)(F)F (stereo not drawn),,"human, plasma","intravenous, 15.7 µg, [14C] microdose, geometric mean",,Vss,359 L
N=C(N)NCCC[C@@H]1NC(=O)[C@H](Cc2c[nH]c3ccccc23)NC(=O)[C@@H](CC2CCCCC2)NC(=O)[C@@H]2CCCN2C(=O)[C@@H](NC(=O)CCc2ccccc2)CCCNC1=O,,"C57BL/6J mice, plasma","intraperitoneal, 1 mg/kg, two-compartment model",,absorption rate constant,4.3 h⁻¹
[11CH3]N1CCN(CCCOc2ccc(=O)n(-c3ccc(Cl)c(Cl)c3)n2)CC1,PET-CT,"BALB/c mouse male, brain","intravenous, dose not given, 5 min",,uptake,7.66 ± 0.82 %ID/cc
Cc1ccc(OCC(=O)N(Cc2cccs2)c2ccn[nH]2)cc1,,"male Sprague-Dawley rat, plasma","oral, 10 mg/kg, single dose",,Tmax,45 min
CC12CC3CC(C)(C1)CC(NC(=O)Nc1ccc(C(=O)N4CCC[C@H](C(N)=O)C4)cc1F)(C3)C2,,"Sprague Dawley rats, both sexes, plasma","oral, 50 mg/kg",,CL,4070 mL/h
COCCOCCOCCOCCOCCOCCOCCOCCC(=O)NCCCc1cc2cc3nc(cc4[nH]c(cc5nc(c(OC)c1[nH]2)C(=O)C5(C)C)cc4CCc1ccc(C(=O)O)cc1)CC3(C)C,,water with 5% DMF,room temperature,,kic^−1,6 ns
O=c1[nH]c(N2CCC3(CC2)CN(CCO)c2cc(F)cc(F)c23)nc2c1CCCC2,,"NOD-SCID mouse, xenograft","intraperitoneal, 100 and 300 mg/kg daily",,body weight and behaviour,no effect
O=C([O-])c1cccc(CN(CCN(Cc2cn(Cc3ccccc3)nn2)Cc2cccc(C(=O)[O-])n2)Cc2cn(Cc3ccccc3)nn2)n1.[64Cu+2],,"mouse, liver","intravenous, 24 h",,tracer uptake,~8 %ID/g and 8.1 %ID/g
CCC(C)N(C)C(=O)c1nc(-c2cccc(C(F)(F)[18F])c2)c2ccccc2n1 (stereo not drawn),,"mouse, lung","intravenous, 3.7 MBq, 15 min",,tracer uptake,23 %ID/g
COc1ccc(-c2csc(N/N=C(\C)c3ccc(O)cc3)n2)cc1,,stock and working solutions,"concentration not given, 7 days, room temperature",,deviation from initial concentration,< 10%
COc1cccc([O-])c1C=NCCCN(C)CCN(C)CCCN=Cc1c([O-])cccc1OC.[67Ga+3],,rat,"intravenous, 1 min",reference: heart over blood,tissue uptake ratio,1.86 ± 0.08
CC(=O)[CH](C(C)=O)[Pt-2]1([S+](C)C)[O]C(C)=CC(C)=[O+]1 (stereo not drawn),,"rat, blood","intravenous, 20 mg/kg, single dose",,total protein,5.01 ± 5.3 g/dL
Nc1ncnc2c1nc(-n1nnc3c1CCC1C(CO)C1CC3)n2C1CC(O)C(CO)O1 (mixture of isomers),frequency-domain fluorometry,methanol,,,fluorescence lifetime τ3,5.6 ns
O=[N][Fe]1([N]=O)[S](CCO)[Fe]([N]=O)([N]=O)[S]1CCO,,C57BL/6JNarl mice,,reference: oral over intravenous AUC,oral bioavailability,6.5%
Cn1c(=O)oc2ccc(-c3ccc(CC(C#N)NC(=O)C4CNCCCO4)c(F)c3)cc21 (stereo not drawn),measured: macule,human,"40 mg single dose, fasted",,subjects with TEAE,0%
CCc1c2c(nc3ccc(O)cc13)-c1cc3c(c(=O)n1C2)COC(=O)[C@]3(O)CC,,"human patients, plasma","intravenous, 177 mg/m^2 of parent drug",,AUC(0-inf),2.65 µg·h/mL
O=S1(=O)CC2CCCCC2CS1 (stereo not drawn),phase solubility,water,"25.0 °C, with: hydroxypropyl-β-cyclodextrin",,association constant,81 M⁻¹
CC(C)[C@H](NC(=O)[C@@H]1CCCN1C(=O)[C@H](CCCNC(=N)N)NC(=O)[C@H](CS)NC(=O)[C@H](Cc1c[nH]c2ccccc12)NC(=O)[C@H](CCCNC(=N)N)NC(=O)[C@@H](Cc1ccccc1)NC(=O)[C@H](Cc1c[nH]cn1)NC(=O)[C@H](CCC(=O)O)NC(=O)[C@H](CS)NC(=O)[C@H](CS)NC(=O)[C@@H]1CC(=O)N[C@@H](CCCNC(=N)N)C(=O)NCC(=O)N[C@@H](CC(=O)O)C(=O)N[C@H](Cc2ccc(O)cc2)C(=O)N1)C(N)=O [technetium-99m labelled],,"C57 mouse, female, B16/F1 melanoma","intravenous, 0.037 MBq, 4 h",reference: tumour over lung,tumour to tissue ratio,19.2

# A few entries again:
SMILES,test,test system,setting,scale,endpoint,result
COc1cccc([O-])c1C=NCCCN(C)CCN(C)CCCN=Cc1c([O-])cccc1OC.[67Ga+3],,rat,"intravenous, 1 min",reference: heart over blood,tissue uptake ratio,1.86 ± 0.08
CC12CC(c3ccc(S(C)(=O)=O)cc3)C3=C4CCC(=O)C=C4CCC3C1CCC2(O)C(F)(F)C(F)(F)F (stereo not drawn),,"human, plasma","intravenous, 15.7 µg, [14C] microdose, geometric mean",,Vss,359 L
CC(=O)[CH](C(C)=O)[Pt-2]1([S+](C)C)[O]C(C)=CC(C)=[O+]1 (stereo not drawn),,"rat, blood","intravenous, 20 mg/kg, single dose",,total protein,5.01 ± 5.3 g/dL
COCCOCCOCCOCCOCCOCCOCCOCCC(=O)NCCCc1cc2cc3nc(cc4[nH]c(cc5nc(c(OC)c1[nH]2)C(=O)C5(C)C)cc4CCc1ccc(C(=O)O)cc1)CC3(C)C,,water with 5% DMF,room temperature,,kic^−1,6 ns
